Experimental data collected from several papers.
Protocols differ between the studies behind these lines.
Cell line: OVCAR-8

SMILES	test	conditions	scale	endpoint	value
CCCN1CCN(c2ccc3[nH]c(-c4ccc5[nH]c(-c6ccc(C(F)(F)F)cc6)nc5c4)nc3c2)CC1	SRB	10 µM, 48 h	–	growth percent	-38%
O=C(Nc1nnc2n3c(Cc4ccccc4)n[nH]c3nc(-c3ccc(Cl)cc3)c1-2)c1ccccc1	SRB	10 µM, NCI60 single-dose screen	reference: untreated	cell growth	107%
O=C(/C=C/C=C/C=C/C1CCCCC1)NC1=C[C@@](O)(/C=C/C=C/C=C/C(=O)NC2=C(O)CCC2=O)[C@@H]2O[C@@H]2C1=O	cell growth, CellTiter-Glo	78 h	–	GI50	16.7 µM
NNc1nc(-c2ccc(Cl)cc2)c2c(NC(=O)c3ccccc3)nnc-2[nH]1	SRB	10 µM, NCI60 single-dose screen	reference: untreated	cell growth	106%
Cn1cncc1C1=CN(c2ncnc3[nH]cnc23)CCS1	–	ovarian cancer	–	TGI	155 µM
C#C[C@@]1(O)[C@@H](CO)O[C@@H](n2cc(F)c3c(N)ncnc32)[C@@H]1O	SRB	NCI-60 screen	–	TGI	3.69 µM
O=C1NC(=NCc2cccs2)S/C1=C\c1ccc2ncccc2c1	MTS	NCI60 panel	–	IC50	> 10 µM
CCCCN1CCN(c2ccc3[nH]c(-c4ccc5[nH]c(-c6ccc(C(F)(F)F)cc6)nc5c4)nc3c2)CC1	SRB	10 µM, 48 h	–	growth percent	-40.5%
Cc1cc(C)n(C(=S)[S][Au][PH](CCCCCC[PH]([Au][S]C(=S)n2nc(C)cc2C)(c2ccccc2)c2ccccc2)(c2ccccc2)c2ccccc2)n1	cell growth, NCI-60 screen	ovarian cancer	–	log10 TGI	> -4
Cc1n[nH]c2nc(-c3ccc(Cl)cc3)c3c(NC(=O)c4ccccc4)nnc-3n12	SRB	10 µM, NCI60 single-dose screen	reference: untreated	cell growth	106%
CN1CCN(c2ccc3[nH]c(-c4ccc5[nH]c(-c6ccc(C(F)(F)F)cc6)nc5c4)nc3c2)CC1	SRB	10 µM, 48 h	–	growth percent	65.5%
CSc1nc(-c2ccc(Cl)cc2)c2c(NC(=O)c3ccccc3)nnc-2[nH]1	SRB	10 µM, NCI60 single-dose screen	reference: untreated	cell growth	98.8%
CCCCN1CCN(c2ccc3[nH]c(-c4ccc5[nH]c(-c6ccc(OCC)cc6)nc5c4)nc3c2)CC1	SRB	10 µM, 48 h	–	growth percent	70.1%

Excerpt of the above:
SMILES	test	conditions	scale	endpoint	value
O=C1NC(=NCc2cccs2)S/C1=C\c1ccc2ncccc2c1	MTS	NCI60 panel	–	IC50	> 10 µM
